Measurements from different studies.
Parts stem from different laboratories: compare values within a part only.

Set 1 — technique: RNA Bind-n-Seq; form: RNA; matrix: in vitro; concentration: 365 nM; relative to: no-protein control; reading: higher = stronger binding
Target: RNA binding protein fox-1 homolog 2, RRM domain, GST-SBP tag (RBFOX2, Homo sapiens, UniProt O43251-10, residues 100-194)
Setting: natural RNA segment, single round, ends assumed
All sequences stand within: GGGAGUUCUACAGUCCGACGAUC … UGGAAUUCUCGGGUGCCAA
Residues (chain): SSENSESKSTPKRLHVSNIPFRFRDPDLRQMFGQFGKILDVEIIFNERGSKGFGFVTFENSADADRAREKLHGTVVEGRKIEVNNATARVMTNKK
For `UAAAAACAAAUUGGAAGAAUAACCAGGACAGCCAAGUGAAGCAGCCACAGGGACCCAAGCAGUCGAGGUCUUUAAUGUGCCUGGAGAUGACUCUCUGCUAUUCAUGAAUC`, “RBNS enrichment (R)” read 0.563.
`UGCCCCUUGUUGGCCCGAGGAAGGAUGUGGAAAGAGCACCUGGUGGGAUGAAGGUCCAACAGCCUGUGCCUCUCCACUGCUGGCCCUGGAGCCGGCAGCAGUGAGGCAUU` — result for “RBNS enrichment (R)”: 0.34.
Under “RBNS enrichment (R)”, `GCCUAUCAUUUCUUUUACCUUUAACUCAACUCUGAACUGAUUGAAUAAGUGCUAAGCUUAUUCUUUGGGCUUUGGGUGGCAAUUUUCAGUGAGGUAUUAAAUAUAUCUGA` is recorded as 0.366.
Under “RBNS enrichment (R)”, `AAGCAGCAUUCUGCCUGAAGCAGGUAGAAGGCUUUGCUGCUCAUGGAAGCUGGUAGGGAACUUAAAAGGCAUGGGAGGGAGGACUGGACAGUGGUCGCUCCGGUGGGUAA` is recorded as 1.29.
For `CCAAAGAUGGGAUUAUUAAUCCAACUCUAGAAAGAGUCCAAAUCUUCAGCCCGUGUCUCAUACACUUGAAGAUGUCUAUAUUGAGUUUGAAGAGGUUAUAAAGGGACAGA`, “RBNS enrichment (R)” read 0.298.
`UGUCCAGCCUUGUGUUUUCUGUAACCCCUGUUUGUGGUACGAGAUAAUGAGUCCUAUUUUUCUCUCACAUAAUAUGCAUUUGCUCUCCUAGGACAGUGUAAUACAUUUAU`: “RBNS enrichment (R)” 0.391.
`CUAUGUUUUCAAUUACCUAAAGACAUAGGAUAAUAGUUUUUUUUAAGUUAGAAUUUUACCUCAUAAAAUUUUUUGAGGUUUGAUGUAUGUCUCUGUCUUAUCAAUAAUGA`: “RBNS enrichment (R)” 2.26.
Under “RBNS enrichment (R)”, `UGCUAUGGCCUGGUGUGUAAUGGGUUAAACAAUAAGCCACUGCCUGACACCCACAUCCACUUUAGCCAUGUGUGACUCCCUAACAUUCCAAUCCUCUACCAUCCUGCAGC` is recorded as 0.73.

Set 2 — technique: RNA Bind-n-Seq; form: RNA; matrix: in vitro; concentration: not given; setting: RNA with constant flanks, ends assumed; relative to: input RNA pool; reading: higher = stronger binding
Target: RING finger protein unkempt homolog, zinc fingers 1-6, GST-SBP tag (UNK, Homo sapiens, UniProt Q9C0B0, residues 30-357)
All sequences stand within: GGGAGUUCUACAGUCCGACGAUC … CAACAGAGGAUUGAGCAUCA
Residues (chain): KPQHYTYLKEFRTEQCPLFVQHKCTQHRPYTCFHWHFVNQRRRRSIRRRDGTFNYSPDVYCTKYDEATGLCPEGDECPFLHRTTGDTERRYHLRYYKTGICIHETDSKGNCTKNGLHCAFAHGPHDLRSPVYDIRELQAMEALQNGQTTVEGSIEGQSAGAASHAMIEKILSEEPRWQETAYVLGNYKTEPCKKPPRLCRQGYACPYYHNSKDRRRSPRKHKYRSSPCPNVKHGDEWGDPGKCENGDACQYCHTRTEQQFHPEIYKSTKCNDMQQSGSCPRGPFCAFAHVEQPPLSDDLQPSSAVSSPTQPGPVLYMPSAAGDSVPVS
With `AAUAACAGGGCCAGGCACAGGGCCAAGCGAGAAGCUUGCAUUGAUUUCAUGCCUGGGUCUACCGAUGUAAUUAAAAAAGAGUCCUGUUUCUGGCCUGAAGAAAAUGCUAAUACCUUUUCA` the bound/input enrichment was 0.135 ratio.
`AUUUUCCUGUGCUCAAUGUGUAAAUUGUAUCAUAACUCAUUGUGGUUGAUUUCACUUUGAUUCCGUGGCAUCUUAAUAAAUGGGGGUGUUACUGAAUCACUCUUCCCACUUCCAUUUCUU` gave a bound/input enrichment of 0.267 ratio.
`UCCCCCUUUGAUCAAAUGAAGACUGCCUCCAAUAUAGGUGGAUUUAAUGCAGCAAUUAAAAACCGUCCACCUGCCAUGUCUCAGUAUAUCACUGUAGGGUCCAAUCCAUUUACUGGCUUC` has a bound/input enrichment of 0.584 ratio.
`GUCAUACAUAUUAAUGACCUGACAGUUAACAUUCUGUUGUUUAUUAUUGCCUUUCUCCACCUCCGAGAGCCAUAAAUAACUCUCUGGUGAAGUGAUUUGCUAUAAUGGGGGUGAGGAGUG` has a bound/input enrichment of 0.43 ratio.
`AUCAAGCAACUGGUUUCCGGAGCUGAGACACUGAAUCUUGUUGCCGAAAUCCUUAAAUCUACCGACAGAAUUUCUGAAGUUAAAGACGAGGAGGAAGACUCUUGAGGACCCCUGGGUGUU` gave a bound/input enrichment of 0.232 ratio.
The bound/input enrichment of `AUUAAAAAUGCUUGUCUACAAACAUCUUCCCUUGCGGUUCGUGUAAAUUCAUUAGUGUGCUCCGGAAAGAUUUUGGAAUACUUGGAUAAGUGGUUUGUACUUGAUGAUAUCCUACCCUUC` is reported as 0.169 ratio.
The bound/input enrichment of `AAACCGCUUUAUCAUCCUUGUGUAUGUACUGGCAGUAUUAAGUUUAUCCAUCAAGAAUGCUCCGUUCAAUGGCUGAAACACAGUCGAAAAGAAUACUGUGAAUUAUGCAAGCACAGAUUU` is reported as 0.241 ratio.
The bound/input enrichment of `GACAACUCUGUCCCUACGACCGGGUCGUUAAGCGCCGUUGCAGCCAUGGCUACUGCUCCCGGAUUUCGCUGCCUUUUCCGAACGCGACCUGCGCCGCUCUGUCGGCACGUCGACCGGCUG` is reported as 0.0871 ratio.

Set 3 — technique: universal PBM; form: double-stranded DNA, one strand shown; matrix: in vitro; concentration: not given; reading: higher = stronger binding
Target: Sal-like protein 4, full length isoform B (SALL4, Homo sapiens, UniProt Q9UJQ4-2, residues 1-616)
Setting: 8-mer, flanks averaged, mean of replicates
Construct (chain): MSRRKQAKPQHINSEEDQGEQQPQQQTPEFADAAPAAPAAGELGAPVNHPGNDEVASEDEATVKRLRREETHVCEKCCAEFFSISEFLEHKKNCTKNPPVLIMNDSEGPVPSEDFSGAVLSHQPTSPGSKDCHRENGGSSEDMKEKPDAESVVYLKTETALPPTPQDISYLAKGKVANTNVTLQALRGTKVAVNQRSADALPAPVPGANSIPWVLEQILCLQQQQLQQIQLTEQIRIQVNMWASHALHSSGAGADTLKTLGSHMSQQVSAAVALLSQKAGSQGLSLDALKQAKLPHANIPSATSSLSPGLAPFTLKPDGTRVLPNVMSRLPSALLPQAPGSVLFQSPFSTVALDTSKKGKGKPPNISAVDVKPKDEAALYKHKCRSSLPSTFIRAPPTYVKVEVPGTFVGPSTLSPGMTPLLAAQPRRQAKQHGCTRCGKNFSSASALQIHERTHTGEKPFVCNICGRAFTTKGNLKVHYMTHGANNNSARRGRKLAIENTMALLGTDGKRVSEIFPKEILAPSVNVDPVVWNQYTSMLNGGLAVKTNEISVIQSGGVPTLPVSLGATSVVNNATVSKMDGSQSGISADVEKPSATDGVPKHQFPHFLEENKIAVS
`ATGGGTGC` has an E-score of 0.0491.
`GCACTGGA` gave an E-score of -0.255.
`AACAAGCC` has an E-score of -0.0552.
For `GTGATGCA`, the E-score was 0.132.
`CCAAGACG` gave an E-score of -0.183.
`CGACGTCA` has an E-score of -0.0975.
`AGGTGTTC` has an E-score of -0.0805.
`CAGCAGCG` gave an E-score of -0.278.
For `CTCAATGA`, the E-score was -0.0184.
`CCTATCCC` gave an E-score of -0.142.
`ATGGTAGC` has an E-score of -0.0432.
For `GAGCAGGA`, the E-score was -0.0846.
With `CAGGAAGC` the E-score was 0.055.
`TAATGGAA` gave an E-score of 0.254.
`ACGTGCTG` has an E-score of -0.147.
For `AGCATGAG`, the E-score was -0.0613.
With `AATAATCA` the E-score was 0.344.
With `AAAGCGGA` the E-score was -0.0246.
`ACTTAGAG` gave an E-score of 0.0314.
`CGCCGAAG` has an E-score of -0.305.
`AGAACTCT` gave an E-score of -0.132.
The E-score of `GCCTAAGA` is reported as -0.0442.
For `CGGTTGCA`, the E-score was -0.205.
With `ATCTACAG` the E-score was 0.152.
`GATGGAAA` gave an E-score of 0.0317.

Set 4 — technique: aptamer microarray, sandwich; form: DNA with 2'F-ANA; matrix: in vitro; concentration: 200 nM; together with: Cy3 exosite-II aptamer, 400 nM; reading: higher = stronger binding; sequence: GGTTGGTGTGGTTGG
Target: Prothrombin, mature alpha-thrombin (F2, Homo sapiens, UniProt P00734)
Setting: whole 15-mer aptamer, many near background
`2'F-ANA at 1 2 3 6 7 8 11 12 13 14`: “mean fluorescence intensity” 94.7 a.u.
For `2'F-ANA at 2 4 7 8 9 10 12 13 15`, “mean fluorescence intensity” read 101 a.u.
Under “mean fluorescence intensity”, `2'F-ANA at 1 2 4 6 7 11 15` is recorded as 92.2 a.u.
For `2'F-ANA at 1 4 6 7 9 11 12 15`, “mean fluorescence intensity” read 157 a.u.
`2'F-ANA at 1 2 4 5 8 10 11 13 14` — result for “mean fluorescence intensity”: 50.2 a.u.
For `2'F-ANA at 1 2 3 4 5 7 11 12 13`, “mean fluorescence intensity” read 70.7 a.u.
For `2'F-ANA at 2 5 7 10 11 13 14`, “mean fluorescence intensity” read 46.3 a.u.
`2'F-ANA at 4 5 8 10 12` — result for “mean fluorescence intensity”: 47.9 a.u.
Under “mean fluorescence intensity”, `2'F-ANA at 1 7 9 10` is recorded as 53.4 a.u.
Under “mean fluorescence intensity”, `2'F-ANA at 2 8 10 11` is recorded as 125 a.u.
For `2'F-ANA at 1 3 5 7 8 9 10 14`, “mean fluorescence intensity” read 50.3 a.u.
`2'F-ANA at 1 3 4 5 6 7 8 9 10 11 12 13`: “mean fluorescence intensity” 62 a.u.
`2'F-ANA at 2 3 5 6 7 14 15` — result for “mean fluorescence intensity”: 49.1 a.u.
Under “mean fluorescence intensity”, `2'F-ANA at 1 10 11 12` is recorded as 62.2 a.u.
For `2'F-ANA at 3 14 15`, “mean fluorescence intensity” read 616 a.u.
`2'F-ANA at 1 2 3 5 6 7 8 11 12 14 15` — result for “mean fluorescence intensity”: 50.4 a.u.
`2'F-ANA at 2 4 5 7 8 11`: “mean fluorescence intensity” 108 a.u.
Under “mean fluorescence intensity”, `2'F-ANA at 2 3 5 7 9` is recorded as 101 a.u.
For `2'F-ANA at 1 2 4 5 9 11 14`, “mean fluorescence intensity” read 41.4 a.u.
`2'F-ANA at 1 2 3 4 5 6 7 10 12 13`: “mean fluorescence intensity” 54.3 a.u.

Excerpt of the above (set 3):
For `AGCATGAG`, the E-score was -0.0613.
With `AATAATCA` the E-score was 0.344.
With `AAAGCGGA` the E-score was -0.0246.
`ACTTAGAG` gave an E-score of 0.0314.
`CGCCGAAG` has an E-score of -0.305.
`AGAACTCT` gave an E-score of -0.132.
The E-score of `GCCTAAGA` is reported as -0.0442.
For `CGGTTGCA`, the E-score was -0.205.
With `ATCTACAG` the E-score was 0.152.
